Results gathered from unrelated publications.
Parts stem from different laboratories: compare values within a part only. Positions count from the first letter of the parent shown.

Series 1 — technique: RNA Bind-n-Seq; molecule type: RNA; sample: in vitro; tested at: 365 nM; reference: no-protein control; direction: higher = stronger binding
Target: RNA binding protein fox-1 homolog 2, RRM domain, GST-SBP tag (RBFOX2, Homo sapiens, UniProt O43251-10, residues 100-194)
Setting: natural RNA segment, single round, ends assumed
Target sequence (chain): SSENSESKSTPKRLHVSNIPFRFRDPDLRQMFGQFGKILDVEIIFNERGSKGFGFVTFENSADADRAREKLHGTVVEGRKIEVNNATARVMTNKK
Under “RBNS enrichment (R)”, `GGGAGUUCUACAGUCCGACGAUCGGCAUUAAACAGCCACCAUCGCAUAGAACCUUCCCUGUAACCCAGACAUUGUCAAGGAAGAUAUACGUAGAGGAUCUUAACUGACUCACAGGAAGCACUUGUCCCCCCUGUGGAAUUCUCGGGUGCCAA` is recorded as 0.366.
For `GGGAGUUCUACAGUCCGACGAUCCAGCAGGGCUGAGGGGCCUAGGGCUGCCUGCUCUCCAAAGCAGAUGACCCAUGUGCGGCAGGGACUCGGCAAAGCUGUGAGGAGCUGAGCUCCGGAGACAGGCACAGCUCUGGAAUUCUCGGGUGCCAA`, “RBNS enrichment (R)” read 0.534.
For `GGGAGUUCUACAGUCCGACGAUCUGAGUUCCCUGGGCAGCCCCCAGGAAGGCCUUCCAGAUCUGGCUCCAGGGUCACCACCUGUCACAGCAAUACCUGGGACCAUGCUCUCCUGGGACUGUGAGGCUCCUUUUUGGAAUUCUCGGGUGCCAA`, “RBNS enrichment (R)” read 0.183.
`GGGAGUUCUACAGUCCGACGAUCUGCAUUAAAUAUUGGGCAAAAUUGCACUUGACUAAUUUUUUGAAGAAAAGUAAUUUAUUCUGUCAAGAAAUAAAAAAAUAGGCUUUGUGUAUGGUUAAACUGUAAAUCUUUGGAAUUCUCGGGUGCCAA` — result for “RBNS enrichment (R)”: 0.545.
`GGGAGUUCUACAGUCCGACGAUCCGAAAAAAAAAUCAAAGCGGGAAGAAAAUCAGAGGGAAGGUUAAGGUUGGCUCUGGCCAGGAUUCCAGGCAGCAGGUUGGAGUGACUGGUGGGCCUAGAUCACUGGUGUGUGGAAUUCUCGGGUGCCAA` — result for “RBNS enrichment (R)”: 0.787.
`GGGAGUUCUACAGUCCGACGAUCGGGGCCAUGGACAUCUUGUGAGCCCUGCCCUCUGGCUGUAGUUGUCUGAGUGUGAGGGGUUUCAUUUCUAUGGCUAAUCCCCAAAGCUGUAACACAUAGGGCAGGUACCUUGGAAUUCUCGGGUGCCAA`: “RBNS enrichment (R)” 0.257.
`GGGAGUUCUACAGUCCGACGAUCCCCUGUCUGCGGAAGGUAGGAUUAGAUCAUUAGCUCAGUGACCUCCUAGGGUUUCGAUGUGCUGUGUUCUCAUCCUACAGCUGGUUUGGUAAUGAUCUGCAAGUCCCGGAUGGAAUUCUCGGGUGCCAA` — result for “RBNS enrichment (R)”: 0.621.
Under “RBNS enrichment (R)”, `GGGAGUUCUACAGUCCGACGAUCUUUGCCAAGAAGGAAGCUUUGGUUCCUUUUUCCCUAGGAAGAAGACAUUGUCUUGGAGAACACUUGGCUCGGAUGGAAAUGUUCUUGUUUUUUACAGCAUUGCUUCAGAGUGGAAUUCUCGGGUGCCAA` is recorded as 0.341.

Series 2 — technique: aptamer microarray, sandwich; molecule type: DNA with 2'F-ANA; sample: in vitro; tested at: 200 nM; added: Cy3 exosite-II aptamer, 400 nM; direction: higher = stronger binding; sequence: GGTTGGTGTGGTTGG
Target: Prothrombin, mature alpha-thrombin (F2, Homo sapiens, UniProt P00734)
Setting: whole 15-mer aptamer, many near background
`2'F-ANA at 2 6 9 13 14` — result for “mean fluorescence intensity”: 99.5 a.u.
For `2'F-ANA at 1 2 3 5 9 10 11 12 13`, “mean fluorescence intensity” read 62.4 a.u.
For `2'F-ANA at 2 4 5 7 8 9 11 12 15`, “mean fluorescence intensity” read 168 a.u.
Under “mean fluorescence intensity”, `2'F-ANA at 2 3 4 5 6 9 10 13 14 15` is recorded as 62.9 a.u.
`2'F-ANA at 1 2 4 8 15` — result for “mean fluorescence intensity”: 171 a.u.
Under “mean fluorescence intensity”, `2'F-ANA at 5 11 12 13 14` is recorded as 45.4 a.u.
For `2'F-ANA at 1 2 5 6 7 9 12`, “mean fluorescence intensity” read 142 a.u.
`2'F-ANA at 1 4 5 9 11 12 14 15` — result for “mean fluorescence intensity”: 44.4 a.u.
Under “mean fluorescence intensity”, `2'F-ANA at 3 8 9 12` is recorded as 1520 a.u.
Under “mean fluorescence intensity”, `2'F-ANA at 1 3 4 6 7 8 9 10 11 12 13` is recorded as 68.1 a.u.
`2'F-ANA at 1 4 6 9 10 11 13 14` — result for “mean fluorescence intensity”: 47.7 a.u.
`2'F-ANA at 1 4 6 7 8 10 11 12 15`: “mean fluorescence intensity” 58 a.u.
For `2'F-ANA at 3 5 6 10 11 13 15`, “mean fluorescence intensity” read 61 a.u.
`2'F-ANA at 1 2 4 5 8 9 10 12 13 15`: “mean fluorescence intensity” 52.9 a.u.
Under “mean fluorescence intensity”, `2'F-ANA at 1 3 4 5 6 7 9 10 12 14 15` is recorded as 45.5 a.u.
`2'F-ANA at 3 8 10 12 14 15`: “mean fluorescence intensity” 414 a.u.
`2'F-ANA at 3 6 10 13 14 15`: “mean fluorescence intensity” 300 a.u.

Series 3 — target: CCNE1, cyclin fold, Cln2 fusion (human); technique: yeast growth competition, sequencing; sample: yeast; setting: strong parent motif; reference: not given; direction: higher = stronger binding
Parent: INSM1 docking peptide (human); PKAIRKLHFEDEV
For `PKAIRKIHFEDEV [L7I]`, “normalised enrichment score” read 1.35.
`PKAIAKLHFEDEV [R5A]`: “normalised enrichment score” 0.0348.
`PKAIRALHFEDEV [K6A]` — result for “normalised enrichment score”: 2.63.
For `PKAIRKLHGEDEV [F9G]`, “normalised enrichment score” read -0.0478.
For `PKAIRKPHFEDEV [L7P]`, “normalised enrichment score” read 0.274.
`PKAIRKLHCEDEV [F9C]`: “normalised enrichment score” -0.189.
`PKAIRKMHFEDEV [L7M]`: “normalised enrichment score” 0.324.
`PKAIRKLHHEDEV [F9H]`: “normalised enrichment score” -0.086.
Under “normalised enrichment score”, `PKAIQKLHFEDEV [R5Q]` is recorded as 0.344.
Under “normalised enrichment score”, `PKAIRKLHFIDEV [E10I]` is recorded as 1.88.
For `PKAIRKLFFEDEV [H8F]`, “normalised enrichment score” read 5.86.
`PKANRKLHFEDEV [I4N]` — result for “normalised enrichment score”: 2.58.
`PKAIRKLAFEDEV [H8A]`: “normalised enrichment score” 3.55.
Under “normalised enrichment score”, `PKAQRKLHFEDEV [I4Q]` is recorded as 2.48.
For `PKAIRKQHFEDEV [L7Q]`, “normalised enrichment score” read -0.125.
Under “normalised enrichment score”, `PKAIRKLYFEDEV [H8Y]` is recorded as 5.44.
`PKAIRKLHFEDGV [E12G]` — result for “normalised enrichment score”: 3.53.
`PKAIRKLHFEMEV [D11M]`: “normalised enrichment score” 3.27.
`PKAIRNLHFEDEV [K6N]` — result for “normalised enrichment score”: 1.24.
For `PKAIRKLEFEDEV [H8E]`, “normalised enrichment score” read 4.94.
For `PKAIRKLHFEYEV [D11Y]`, “normalised enrichment score” read 3.69.

Series 4 — technique: RNA Bind-n-Seq; molecule type: RNA; sample: in vitro; tested at: 200 nM; setting: whole 134-nt RNA, ends assumed; added: 150 mM LiCl; reference: input library; direction: higher = stronger binding; each molecule: 7-deaza-guanosine replaces G
Target: Ras GTPase-activating protein-binding protein 1, full length (G3BP1, Homo sapiens, UniProt Q13283)
Sequence of UniProt Q13283 (whole entry, looked up): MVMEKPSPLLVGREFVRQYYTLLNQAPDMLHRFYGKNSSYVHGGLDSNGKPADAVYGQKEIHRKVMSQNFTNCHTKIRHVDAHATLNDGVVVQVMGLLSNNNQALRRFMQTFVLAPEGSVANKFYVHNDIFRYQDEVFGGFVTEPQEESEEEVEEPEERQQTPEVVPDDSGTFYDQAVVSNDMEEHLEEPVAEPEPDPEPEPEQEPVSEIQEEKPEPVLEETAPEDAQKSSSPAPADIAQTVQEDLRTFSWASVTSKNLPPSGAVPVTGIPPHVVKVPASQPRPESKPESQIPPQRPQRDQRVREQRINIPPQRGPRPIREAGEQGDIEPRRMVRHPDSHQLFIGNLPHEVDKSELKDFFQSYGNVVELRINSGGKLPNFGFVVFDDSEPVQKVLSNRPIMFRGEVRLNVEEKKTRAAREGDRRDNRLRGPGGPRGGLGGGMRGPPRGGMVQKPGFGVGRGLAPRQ
The log2 enrichment of `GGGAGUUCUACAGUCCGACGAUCUAACUUUAGAGGAGGAUCUGAUGGAUAUGGCAGUGGACGUGGAUUUGGGGAUGGCUAUAAUGGGUAUGGAGAAGGACCUGGAGGUGGCAAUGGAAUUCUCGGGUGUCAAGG` is reported as -0.0462.
`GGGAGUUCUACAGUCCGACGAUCUCCUGUGCUACACAUCGUAUGUACCGAAUCGGGGUGGGGAAAAAGGGGUUUUUUUGGGGAAAGUAUUAUGUUACGCCGUUCGGAUCUGCAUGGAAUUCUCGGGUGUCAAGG` has a log2 enrichment of 0.249.
The log2 enrichment of `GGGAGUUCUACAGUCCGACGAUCCCUGUGCUACACAUCGUAUGUACCGAAUCGGGGAAAAAGGGGAAAAAGGGGUUUUUGGGGAAAGUAUUAUGUUACGCCGUUCGGAUCUGCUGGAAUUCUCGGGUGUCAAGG` is reported as 0.71.
With `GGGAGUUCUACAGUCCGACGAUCGCAGGAAGUAAAAACAAAUGGAAAUGCUUCGGAUAGUGGCAGGGGUGGGGGUUGCUAAGGAAAGGGUGGGAUGGGAGUGAAAAAAGAGUUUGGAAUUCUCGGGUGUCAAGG` the log2 enrichment was 0.0413.
The log2 enrichment of `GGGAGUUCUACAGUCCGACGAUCACCAUGCAGGUGGGCAUCUUUGGGAAGUGGGGCAAGGGGGGGAUAGGGAGGGGCGUAACACUUUGGGAACAGGUGGUCCCAGGUCGUUUCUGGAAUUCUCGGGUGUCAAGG` is reported as 0.335.
For `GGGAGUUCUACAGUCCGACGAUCCCUGUGCUACACAUCGUAUGUACCGAAUCGGGGUUUGGGGAAAAAAAGGGGAAAAAGGGGAAAGUAUUAUGUUACGCCGUUCGGAUCUGCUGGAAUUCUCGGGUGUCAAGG`, the log2 enrichment was 0.311.
The log2 enrichment of `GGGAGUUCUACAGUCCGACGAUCCCUCAAGUCCUGUGCUACACAUCGUAUGUACCGAAUCGGGAAGGAAGGAAGGGAAAGUAUUAUGUUACGCCGUUCGGAUCUGCACUUCCAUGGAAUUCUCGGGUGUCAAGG` is reported as -0.0287.
`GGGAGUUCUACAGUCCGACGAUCUCAUGGCUAUCAUUAGCCACAGGUACUGCUGAUUAUAAGGCCAGUAAAAUUUUAGUACCUGGAGGUUUGACUCUAAUUUUUGCACUGAUGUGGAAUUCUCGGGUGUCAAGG` gave a log2 enrichment of -2.24.

A few entries again (series 2):
Under “mean fluorescence intensity”, `2'F-ANA at 3 8 9 12` is recorded as 1520 a.u.
Under “mean fluorescence intensity”, `2'F-ANA at 1 3 4 6 7 8 9 10 11 12 13` is recorded as 68.1 a.u.
`2'F-ANA at 1 4 6 9 10 11 13 14` — result for “mean fluorescence intensity”: 47.7 a.u.
`2'F-ANA at 1 4 6 7 8 10 11 12 15`: “mean fluorescence intensity” 58 a.u.
For `2'F-ANA at 3 5 6 10 11 13 15`, “mean fluorescence intensity” read 61 a.u.
`2'F-ANA at 1 2 4 5 8 9 10 12 13 15`: “mean fluorescence intensity” 52.9 a.u.
Under “mean fluorescence intensity”, `2'F-ANA at 1 3 4 5 6 7 9 10 12 14 15` is recorded as 45.5 a.u.
